Measured values of several laboratories.
Each line is one published result; not all experiments were run side by side. Values joined by “and” are separate records of one study, mostly repeats; a detail may differ. pEC50, pIC50: −log10 of the molar value.
Cell line: COLO 205

The log TGI of `S=C([S][Au-][P+](CCCCCC[P+]([Au-][S]C(=S)n1cccn1)(c1ccccc1)c1ccccc1)(c1ccccc1)c1ccccc1)n1cccn1` is reported as over -4 log10 M (cell growth, NCI-60 screen; colon cancer).
For `CCn1cc(-c2cc(Cn3ccoc3=N)cc3c2CCN([C@@H](C)c2cc(OC)ccn2)C3=O)c(C(F)(F)F)n1`, the pEC50 was 7.82 (cell growth, inhibitor; 120 h).
Under “log2 fold change”, `Cn1cc(-c2ccc(-c3cncc(Cl)c3N3CCC4(CCNC4=O)CC3)cc2)cn1` is recorded as 2.28 (gene expression, microarray, refers to: LMNA mRNA; concentration not given, 6 h; reference: untreated cells).
For `CCOC(=O)CSc1nc(-c2ccc(Cl)cc2)c2c(NC(=O)c3ccccc3)nnc-2[nH]1`, the cell growth was 99.2% (SRB; 10 µM, NCI60 single-dose screen, colon cancer; reference: untreated).
With `COc1cnc2cccc(N3CCc4c(cc(Cn5ccnc5C)cc4-c4cn(C)nc4C(F)(F)F)C3=O)c2c1` the pEC50 was 5.59 (cell growth, inhibitor; 120 h).
With `C#C[C@@]1(O)[C@@H](CO)O[C@@H](n2cc(F)c3c(N)ncnc32)[C@@H]1O` the TGI was 1300 nM (SRB; NCI-60 screen).
With `O=C1NC(=NCc2cccs2)S/C1=C\c1ccc2ncccc2c1` the pIC50 was under 5.00 (MTS; colon cancer).
For `CC(=O)Nc1cccc(-n2c(=O)n(C3CC3)c(=O)c3c(Nc4ccc(I)cc4F)n(C)c(=O)c(C)c32)c1`, the fractional effect was 0.904 and 0.928 (cell viability, resazurin; 100.00 nM, 72 h; reference: DMSO).
The cell growth of `Cc1cc(-c2ccccc2)n(-c2nc(-c3ccc(Cl)cc3)c3c(NC(=O)c4ccccc4)nnc-3[nH]2)n1` is reported as 124% (SRB; 10 µM, NCI60 single-dose screen, colon cancer; reference: untreated).
`CCN(CC)c1ccc(C=NNC(=O)CSc2nc3ccccc3c(=O)n2Cc2ccc(S(N)(=O)=O)cc2)c(O)c1` gave a TGI of over 100000 nM (NCI five-dose screen).
The TGI of `Cn1cncc1C1=CN(c2ncnc3[nH]cnc23)CCS1` is reported as 75900 nM (colon cancer).
`O=C(Nc1nnc2n3c(nc(-c4ccc(Cl)cc4)c1-2)SCC3=O)c1ccccc1` gave a cell growth of 127% (SRB; 10 µM, NCI60 single-dose screen, colon cancer; reference: untreated).

A few entries again:
Under “log2 fold change”, `Cn1cc(-c2ccc(-c3cncc(Cl)c3N3CCC4(CCNC4=O)CC3)cc2)cn1` is recorded as 2.28 (gene expression, microarray, refers to: LMNA mRNA; concentration not given, 6 h; reference: untreated cells).
